{"data": "Experimental data from different studies", "note": "Each line is one published result; not all experiments were run side by side. Several values in a cell are separate wells, animals, samples, runs or records. ± marks the error that the study gave."}
{"Structure (SMILES)": "O=C(NCc1ccc(OC(F)(F)F)cc1)[C@H]1CCCN(c2ncnc3[nH]c(-c4ccc(N5CCOCC5)cc4)cc23)C1", "cell line": "NCI-H2228", "assay": "cell growth or viability, MTT", "conditions": "0.2 µg/mL, 72 h", "measurement": "inhibition", "result": "66.3%"}
{"Structure (SMILES)": "COC(=O)c1cc(NC2=NC(=O)C(=Cc3ccc(N(C)C)cc3)S2)ccc1OC(C)=O", "cell line": "A549", "assay": "measured: TGFB1", "conditions": "2.93 µM, 24 h", "scale": "reference: DMSO", "measurement": "mRNA level", "result": "101 fold change"}
{"Structure (SMILES)": "O=C(N/N=C/c1ccccn1)c1cc(-c2ccc(Cl)cc2)nc2ccccc12", "cell line": "LDR", "assay": "silenced CMV-GFP reporter derepression, qHTS", "measurement": "efficacy", "result": "72%"}
{"Structure (SMILES)": "CC1(C)C[C@@H](Nc2cccc(-c3sc(C(=O)O)c(OCC(=O)O)c3Cl)c2)CCN1S(=O)(=O)Cc1cccc(NC(=O)CN2CCC(c3ccc4c(c3)oc(=O)n4C3CCC(=O)NC3=O)CC2)c1 (stereo partly shown)", "cell line": "B16-F10", "assay": "HTRF, measured: phospho-STAT1 Tyr701", "conditions": "0.041 µM, together with: IFN-γ", "scale": "reference: DMSO", "measurement": "fold change", "result": "1.69 and 1.64 and 1.48 and 1.37 and 1.6 and 1.5"}
{"Structure (SMILES)": "CCCCCCCCCCCC(=O)N[C@@H](CO)C[C@@H](O)c1cccc(CCCCCC)c1", "cell line": "HeLa", "assay": "CERT activity, HPLC-MS/MS lipidomics, measured: ceramide 20", "conditions": "1 µM, 24 h, not cell-number normalised", "measurement": "ceramide level", "result": "129 pmol/sample and 145 pmol/sample and 216 pmol/sample"}
{"Structure (SMILES)": "Cc1cc(NC2CCN(C)CC2)ccc1-c1cc2c(N3CCC[C@H](C(=O)N4CCCCC4)C3)ncnc2[nH]1", "cell line": "NCI-H2228", "assay": "cell growth or viability, MTT", "conditions": "0.2 µg/mL, 72 h", "measurement": "inhibition", "result": "-2.51%"}
{"Structure (SMILES)": "CCCC[C@H](NC(=O)[C@H](CC(C)C)NC(=O)[C@H](CO)NC(=O)[C@H](CO)NC(=O)[C@H](C)NC(=O)[C@H](CO)NC(=O)[C@H](C)N)C(=O)N[C@@H](CC(=O)O)C(=O)N[C@@H](CCCCN)C(=O)N[C@@H](CCC(=O)O)C(=O)N[C@@H](C)C(=O)N[C@H](C(=O)N[C@@H](Cc1ccc(O)cc1)C(=O)N[C@@H](Cc1ccccc1)C(=O)N[C@@H](C)C(=O)N[C@@H](Cc1c[nH]cn1)C(=O)N[C@@H](CC(C)C)C(=O)N[C@@H](CC(=O)O)C(=O)N[C@H](C(=O)N[C@H](C(=O)N[C@@H](Cc1c[nH]c2ccccc12)C(=O)O)[C@@H](C)CC)[C@@H](C)CC)C(C)C", "cell line": "COS-7 ETBR-GFP", "assay": "calcium flux, agonist", "conditions": "ETBR/ETAR ratio 1:3", "measurement": "Emax", "result": "39 ± 5%"}
{"Structure (SMILES)": "O=C(C[Se]C(=O)c1cc2ccccc2[nH]1)Nc1cccc(C(F)(F)F)c1", "cell line": "NCI60 renal subpanel", "assay": "cell growth", "conditions": "10 µM, 48 h, one-dose", "measurement": "mean growth percent", "result": "-82.8%"}
{"Structure (SMILES)": "Cc1ncsc1-c1ccc(C(C)NC(=O)C2CC(O)CN2C(=O)C(NC(=O)CCCCCCCCCCN2CCCC(Nc3ncc(Cl)c(Nc4ccccc4S(=O)(=O)C(C)C)n3)C2)C(C)(C)C)cc1 (stereo not shown)", "cell line": "22Rv1", "assay": "RNA-seq, measured: PAGR1 mRNA", "conditions": "concentration not given", "scale": "reference: DMSO", "measurement": "log2 fold change", "result": -1.48}
{"Structure (SMILES)": "O=C(NCc1ccc(OC(F)(F)F)cc1)[C@H]1CCCN(c2ncnc3[nH]c(-c4cccnc4)cc23)C1", "cell line": "NCI-H2228", "assay": "cell growth or viability, MTT", "conditions": "0.008 µg/mL, 72 h", "measurement": "inhibition", "result": "20.3%"}
{"Structure (SMILES)": "COc1ccccc1-c1ccncc1C(=O)Nc1ccc(OCc2ccc(Cl)cc2)nn1", "cell line": "DLD-1 BRCA2-/-", "conditions": "20 µM, mean of 3 replicates", "scale": "reference: untreated", "measurement": "colony survival", "result": "98.7%"}
{"Structure (SMILES)": "CCN(CC)CCCNC(=O)CSc1c2c(nc3cc(Cl)ccc13)CCCC2", "cell line": "LDR", "assay": "silenced CMV-GFP reporter derepression, qHTS", "measurement": "Emax", "result": "63%"}
{"Structure (SMILES)": "COc1cc(N2CCN(C(=O)C3CCCN3)CC2)ccc1Nc1ncc(Cl)c(Nc2ccccc2P(C)(C)=O)n1 (stereo not shown)", "cell line": "Ba/F3 EML4-ALK", "assay": "annexin V flow cytometry", "conditions": "concentration not given, 24 h", "measurement": "early apoptotic cells", "result": "7.6%"}
{"Structure (SMILES)": "Cc1cc(N)ccc1-c1cc2c(N3CCC[C@H](C(=O)NCc4ccc(OC(F)(F)F)cc4)C3)ncnc2[nH]1", "cell line": "NCI-H2228", "assay": "cell growth or viability, MTT", "conditions": "1 µg/mL, 72 h", "measurement": "inhibition", "result": "66.2%"}
{"Structure (SMILES)": "O=S(=O)(c1ccc2c(c1)OCO2)n1cc(CCCCN2CCC(=C(c3ccc(F)c(F)c3)c3ccc(F)c(F)c3)CC2)nn1", "cell line": "SH-SY5Y", "assay": "live-cell imaging biosensor", "conditions": "10 µM, 2 h", "measurement": "intracellular FBP level", "result": "increased"}
{"Structure (SMILES)": "CCN(CC)CC(=O)Nc1cccc(-n2cc(-c3ccc4ccc(-c5cn(-c6cccc(NC(=O)CN(CC)CC)c6)nn5)cc4c3)nn2)c1", "cell line": "RCC4", "assay": "PCR angiogenesis array, measured: PECAM1", "conditions": "5 x IC50, 4 h, normoxia", "scale": "reference: untreated", "measurement": "fold regulation", "result": 1.09}
{"Structure (SMILES)": "CN1CCCNC(=O)c2cccc(c2)C(=O)NCCCN(C)CCCNc2cccc3c2C(=O)c2cccc(c2C3=O)NCCC1", "cell line": "SAS", "assay": "RNA-Seq, measured: SSR2 mRNA", "conditions": "1 µM, 6 h", "scale": "reference: untreated cells", "measurement": "log2 fold change", "result": -0.701}
{"Structure (SMILES)": "CCN(C(=O)c1cc(F)ccc1Oc1nncnc1N1CCC2(C1)CN([C@H](CCCN(C)CCOC)C(C)C)C2)C(C)C", "cell line": "786-O", "assay": "cell growth", "conditions": "72 h", "measurement": "GI50", "result": "> 10000 nM"}
{"Structure (SMILES)": "CNS(=O)(=O)Nc1nccc(Cc2c(C)c3ccc(Oc4ncccc4F)cc3oc2=O)c1F", "cell line": "MFE-280", "assay": "cell viability", "conditions": "7 days", "measurement": "IC50", "result": "537 nM"}
{"note": "Repeated from above:"}
{"Structure (SMILES)": "CCN(C(=O)c1cc(F)ccc1Oc1nncnc1N1CCC2(C1)CN([C@H](CCCN(C)CCOC)C(C)C)C2)C(C)C", "cell line": "786-O", "assay": "cell growth", "conditions": "72 h", "measurement": "GI50", "result": "> 10000 nM"}
{"Structure (SMILES)": "CC1(C)C[C@@H](Nc2cccc(-c3sc(C(=O)O)c(OCC(=O)O)c3Cl)c2)CCN1S(=O)(=O)Cc1cccc(NC(=O)CN2CCC(c3ccc4c(c3)oc(=O)n4C3CCC(=O)NC3=O)CC2)c1 (stereo partly shown)", "cell line": "B16-F10", "assay": "HTRF, measured: phospho-STAT1 Tyr701", "conditions": "0.041 µM, together with: IFN-γ", "scale": "reference: DMSO", "measurement": "fold change", "result": "1.69 and 1.64 and 1.48 and 1.37 and 1.6 and 1.5"}
